# Results pooled from the literature.
# Parts stem from different laboratories: compare values within a part only. Changes are numbered by the printed parent chain.

# Study 1
# Target: ATF2, bZIP domain (human)
# Method: DHFR protein complementation
# Sample: yeast
# Setting: single substitutions, most at no-binding floor
# Baseline: wild-type JUN-FOS pair
# Reading: higher = stronger binding
# Starting sequence: JUN, bZIP domain (human); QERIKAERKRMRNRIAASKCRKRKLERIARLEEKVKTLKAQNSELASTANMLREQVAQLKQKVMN; partner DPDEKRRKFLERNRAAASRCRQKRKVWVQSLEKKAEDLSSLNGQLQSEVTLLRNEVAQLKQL
Change,binding fitness
L59G,-1.41 natural log
E32R,-1.37 natural log
L45V,-1.52 natural log
V56T,-1.52 natural log
A46R,-1.23 natural log
Q55W,-1.52 natural log
L31A,-1.49 natural log
K36R,-1.24 natural log
K39T,-1.4 natural log
Q55F,-1.57 natural log
S43N,-1.42 natural log
A46P,-1.5 natural log
E33S,-1.34 natural log
L52S,-1.51 natural log
T48R,-1.32 natural log
V56P,-1.52 natural log
T37E,-1.34 natural log
K36T,-1.43 natural log
T48F,-1.46 natural log
V35D,-1.51 natural log
A46T,-1.39 natural log
R30L,-1.35 natural log
L31G,-1.46 natural log
A29T,-1.32 natural log
E33C,-1.41 natural log

# Study 2
# Target: ABI1, truncated, D143A, DHFR fusion (Arabidopsis thaliana)
# Method: DHFR PCA, deep sequencing
# Sample: yeast
# Setting: methotrexate growth selection, single substitutions
# With: (+)-ABA 0.032 µM
# Baseline: wild-type fitted maximum
# Reading: higher = stronger binding
# Starting sequence: PYL1, truncated, DHFR fusion (Arabidopsis thaliana); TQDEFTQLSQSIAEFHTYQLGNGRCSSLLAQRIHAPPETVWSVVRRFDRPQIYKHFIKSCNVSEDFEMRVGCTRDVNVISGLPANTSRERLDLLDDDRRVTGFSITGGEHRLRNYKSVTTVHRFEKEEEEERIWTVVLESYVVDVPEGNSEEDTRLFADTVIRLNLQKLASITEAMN; partner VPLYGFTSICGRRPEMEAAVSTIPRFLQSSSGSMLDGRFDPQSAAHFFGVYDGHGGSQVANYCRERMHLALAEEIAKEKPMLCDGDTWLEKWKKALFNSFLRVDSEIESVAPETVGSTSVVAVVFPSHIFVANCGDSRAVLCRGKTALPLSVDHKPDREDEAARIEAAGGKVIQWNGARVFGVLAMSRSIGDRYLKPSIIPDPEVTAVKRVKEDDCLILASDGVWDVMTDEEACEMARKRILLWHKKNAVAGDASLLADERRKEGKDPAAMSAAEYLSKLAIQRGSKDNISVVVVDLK
Change,relative binding score [%]
S42G,18.4
R24G,3.1
T160N,1.5
R155C,0.456
C60Q,1.32
D65K,8.44
L28D,1.45
N149C,50.2
S59A,11.5
E125A,43.5
T119G,1.84
T173P,-1.03
T173F,-4.86
S11E,38.9
S117Q,6.99
W41V,-0.977
T173K,-6.66
F47K,-1.07
E139A,7.68
G21H,9.19
T106N,-4.79
R90D,4.05
T160Q,-2.49

# Study 3
# Target: Ras GTPase-activating protein-binding protein 1, full length (G3BP1, Homo sapiens, UniProt Q13283)
# UniProt Q13283, sequence (whole entry, looked up): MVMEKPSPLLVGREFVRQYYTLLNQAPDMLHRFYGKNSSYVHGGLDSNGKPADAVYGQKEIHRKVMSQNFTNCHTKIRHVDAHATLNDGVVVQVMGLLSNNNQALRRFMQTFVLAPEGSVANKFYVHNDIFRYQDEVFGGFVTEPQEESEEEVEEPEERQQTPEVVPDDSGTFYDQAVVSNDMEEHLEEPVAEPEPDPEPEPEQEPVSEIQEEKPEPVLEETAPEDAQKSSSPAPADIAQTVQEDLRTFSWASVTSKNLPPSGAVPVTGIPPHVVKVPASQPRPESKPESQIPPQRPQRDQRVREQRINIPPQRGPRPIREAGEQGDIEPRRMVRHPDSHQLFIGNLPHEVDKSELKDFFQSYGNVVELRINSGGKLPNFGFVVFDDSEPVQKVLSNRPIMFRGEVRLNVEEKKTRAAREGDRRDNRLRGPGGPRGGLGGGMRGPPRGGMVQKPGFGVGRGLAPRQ
# Method: RNA Bind-n-Seq
# Form: RNA
# Sample: in vitro
# Concentration: 200 nM
# Setting: whole 134-nt RNA, ends assumed
# With: 150 mM KCl
# Baseline: input library
# Reading: higher = stronger binding
Oligonucleotide,log2 enrichment
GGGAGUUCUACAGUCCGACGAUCUUUCCAGCAGUACCAGCUCCAGCCAGGAUCACCCUCUCUACUCUGGGCACCCAUCCCUUCCACUAAGUGGUGCUAUUGCUGCUUUUGCCUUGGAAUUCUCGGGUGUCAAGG,0.453
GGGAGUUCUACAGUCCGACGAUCAGUCCUGUGCUACACAUCGUAUGUACCGAAUCGGGGAAAAGGGGAAAAGGGAAAAGGGAAAGUAUUAUGUUACGCCGUUCGGAUCUGCACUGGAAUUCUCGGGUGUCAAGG,0.225
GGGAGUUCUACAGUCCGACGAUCUCAAGUCCUGUGCUACACAUCGUAUGUACCGAAUCGGAAAGGGAAAGGAAAGGGAAAGUAUUAUGUUACGCCGUUCGGAUCUGCACUUCCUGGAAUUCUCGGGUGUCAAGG,-0.804
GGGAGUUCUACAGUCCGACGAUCUCAUGUAUAGACAACGCCAUUAUUGACGAGAUCACUCCCAAGCGGAUUGGAGAUUGUCCCAAUAUUUAGACCUAUAGCAAGGCCUUGGGAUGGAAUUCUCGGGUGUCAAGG,0.794
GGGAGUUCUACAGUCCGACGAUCUAACUUUAGAGGAGGAUCUGAUGGAUAUGGCAGUGGACGUGGAUUUGGGGCUGGCUAUAAUGGGUAUGGAGGAGGACCUGGAGGUGGCAAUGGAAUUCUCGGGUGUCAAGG,0.19
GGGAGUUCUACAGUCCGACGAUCCUCAAGUCCUGUGCUACACAUCGUAUGUACCGAAUCGGAGGUUUGGAAAAAGGAAAGUAUUAUGUUACGCCGUUCGGAUCUGCACUUCCAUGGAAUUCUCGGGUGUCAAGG,-0.633
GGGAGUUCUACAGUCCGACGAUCCACAGACAACACGCACCCACAUAGACACAGAGGGAAGGGGUUGGGAUGGGGACAGGGUGCACAGCAGGGCGGGGUAGGACCCCAGCCCCUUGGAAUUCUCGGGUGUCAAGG,1.94
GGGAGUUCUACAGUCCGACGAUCUGCUGGUGAGCUGCUGCCUGGCAGGCCACGUCUGCGUGUGGGACGCGCAGACCGGGGAUUGCCUAACGCGCAUUCCGCGCCCAGGGUAGGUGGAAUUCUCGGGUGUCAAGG,-1.38
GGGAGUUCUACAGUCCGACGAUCUCAAGUCCUGUGCUACACAUCGUAUGUACCGAAUCGGGGAAGGGAAGGGGAAGGGAAAGUAUUAUGUUACGCCGUUCGGAUCUGCACUUCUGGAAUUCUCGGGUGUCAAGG,0.919
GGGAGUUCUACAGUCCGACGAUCUGAUCUCCAGGAUGACAUGCGAAGAUGCCAAAUCAUCCGAGACAUGAUUGGACCGGAAAAGACUUUGGUAAAUAUCCUCUCACACCACUAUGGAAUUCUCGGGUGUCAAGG,-1.22

# Study 4
# Target: CCND2, cyclin fold, Cln2 fusion (human)
# Method: yeast growth competition, sequencing
# Sample: yeast
# Setting: weak parent motif
# Baseline: not given
# Reading: higher = stronger binding
# Starting sequence: RBL2 docking peptide (human); STTRRRLFVENDS
Change,normalised enrichment score
F8I,0.25
D12E,0.0379
N11S,0.166
R6W,0.00861
S13G,0.233
S1L,-0.0262
V9L,0.295
D12K,0.287
R6Y,0.127
N11W,0.308
T3W,0.0279
D12H,0.139
T2R,0.123
T2F,-0.0537
T3E,-0.211
N11R,0.0113
D12Y,0.295
V9A,0.339
N11A,-0.268
S1G,0.464
D12P,0.0402
S1I,0.156
S13W,0.0378
R5E,0.2
S13K,-0.0277

# Some of these lines once more (study 4):
Change,normalised enrichment score
D12P,0.0402
S1I,0.156
S13W,0.0378
R5E,0.2
S13K,-0.0277
